Assay results pooled from the literature.
Lines come from different studies, so protocols differ. ± marks the error that the study gave. ≈ marks a conversion by molar mass, not a printed value.

| SMILES | tested on | assay | test system | setting | scale | endpoint | result |
| --- | --- | --- | --- | --- | --- | --- | --- |
| COc1cc2nc(NC3CCN(Cc4ccc(C(N)=O)cc4)CC3)nc(Oc3c(C)cc(C#N)cc3C)c2cc1OC | HIV-1 | MTT | MT4, RT L100I/V179D/Y181C mutant |  | relative to: CC50 over EC50 | selectivity index | < 1 |
| O=C(Oc1cc(OC(=O)c2cc(O)c(O)c(O)c2)c2ccccc2c1)c1cc(O)c(O)c(O)c1 | Herpes simplex virus 2 |  | Vero, acyclovir-resistant |  | relative to: CC50 over IC50 | therapeutic index | 45.1 |
| CC(C)C[C@H](NC(=O)[C@H](CC(C)C)NC(=O)[C@H](CCCCN)NC(=O)[C@H](Cc1ccccc1)NC(=O)[C@@H](NC(=O)[C@H](CCCNC(=N)N)NC(=O)[C@@H](N)CCCCN)C(C)C)C(=O)N[C@@H](CCCCN)C(=O)N[C@@H](CCCNC(=N)N)C(=O)N[C@@H](Cc1ccc(O)cc1)C(=O)N[C@@H](Cc1c[nH]c2ccccc12)C(=O)N[C@@H](CCCNC(=N)N)C(=O)N[C@@H](CCC(N)=O)C(=O)N[C@@H](CC(C)C)C(=O)N[C@@H](CCCCN)C(=O)N[C@@H](CCCCN)C(=O)N1CCC[C@H]1C(=O)N[C@H](C(=O)N[C@@H](CCCNC(=N)N)C(=O)NCCOCCOCC(=O)O)C(C)C | Staphylococcus aureus |  |  | 6 h, 37 °C, serum stability, with: 50% human serum | relative to: without serum | MIC increase | 10 fold |
| O=C(O)CCCOc1ccc(O)cc1-c1cc(-c2ccccc2C(F)(F)F)n(-c2ccccc2)n1 | Salmonella typhimurium | Ames test | TA100 | concentration not given, with S9 metabolic activation |  | growth-inhibiting concentration | 5000 µg/plate |
| Fc1cccc(COc2ccc(Nc3ncnc4ccc(-c5cccc(N6CCNCC6)c5)cc34)cc2Cl)c1 | Trypanosoma cruzi |  | NIH 3T3 |  | relative to: NIH 3T3 TC50 over T. cruzi EC50 | selectivity ratio | 8.5 |
| Cc1nc2cccc(OCC(C)(C)C(=O)NC(C)C)c2c(N)c1C(=O)[O-].[Na+] | Salmonella typhimurium |  | TA100 | 0.80 mg per plate, with S9, preincubation |  | revertant colonies per plate | 116 ± 3 |
| O=C1NC2(CC2)COc2ncc(F)cc2[C@H]2COCCN2c2ccn3ncc1c3n2 |  |  | Sprague-Dawley rats, female, blood | oral, 2.5 mg/kg/day, end of recovery, 4-week subacute toxicity |  | haematocrit | 39.9 ± 1.9% |
| c1ccc(Nc2ncnc3ccc(-c4cccc(N5CCOCC5)c4)cc23)cc1 | Trypanosoma cruzi |  | NIH 3T3 |  | relative to: NIH 3T3 TC50 over T. cruzi EC50 | selectivity ratio | 1.3 |
| CC[C@H](C)[C@H](NC(=O)[C@H](CCCCN)NC(=O)[C@H](CCCCN)NC(=O)[C@H](Cc1ccccc1)NC(=O)[C@H](Cc1ccccc1)NC(=O)[C@H](CCCCN)NC(=O)[C@H](CCCCN)NC(=O)[C@H](Cc1ccccc1)NC(=O)[C@H](CCCNC(=N)N)NC(=O)[C@@H](N)CCCCN)C(=O)N[C@@H](CCCCN)C(=O)N[C@@H](CCCCN)C(=O)N[C@@H](CO)C(=O)N[C@H](C(=O)N[C@@H](CCCCN)C(=O)N[C@@H](CCCCN)C(=O)N[C@@H](CCCNC(=N)N)C(=O)N[C@H](C(=O)N[C@@H](CCCCN)C(=O)N[C@@H](CCCCN)C(=O)N[C@@H](CC(C)C)C(=O)N[C@@H](Cc1ccccc1)C(=O)N[C@@H](CCCCN)C(=O)N[C@@H](CCCCN)C(=O)N1CCC[C@H]1C(=O)N[C@@H](CCCNC(=N)N)C(=O)N[C@H](C(=O)N[C@H](C(=O)N1CCC[C@H]1C(=O)N[C@H](C(=O)N[C@@H](CO)C(=O)N[C@H](C(=O)N1CCC[C@H]1C(=O)N[C@@H](Cc1ccccc1)C(=O)O)[C@@H](C)CC)[C@@H](C)CC)[C@@H](C)CC)C(C)C)C(C)C)C(C)C | Escherichia coli |  | E24 | after heating at 37 °C |  | MIC | 4 µg/mL (≈ 0.948 µM) |
| O=C(c1ccc(-c2ccc3ncnc(Nc4ccc(OCc5cccc(F)c5)c(Cl)c4)c3c2)cc1)N1CCOCC1 | Trypanosoma cruzi |  | NIH 3T3 |  | relative to: NIH 3T3 TC50 over T. cruzi EC50 | selectivity ratio | 0.3 |
| Cc1cc(/C=C/C#N)cc(C)c1Oc1nc(NC2CCN(Cc3ccc(S(C)(=O)=O)cc3)CC2)nc2ncccc12 | HIV-1 | MTT | MT4, RT L100I/V179D/Y181C mutant |  | relative to: CC50 over EC50 | selectivity index | 64 |
| CN1CCN(S(=O)(=O)c2ccc(-c3ccc4ncnc(Nc5ccc(Cl)cc5)c4c3)cc2)CC1 | Trypanosoma cruzi |  | NIH 3T3 |  | relative to: NIH 3T3 TC50 over T. cruzi EC50 | selectivity ratio | 1.3 |
| CC1(F)CN(C(=O)Cn2c(=O)c(C(=O)NCc3ccc(Cl)cc3)cc3nc(N4CCN(CCN)C4=O)cnc32)C1 | human cytomegalovirus |  | MRC-5, AD169-GFP |  | relative to: CC50 over EC50 | selectivity ratio | > 105 |
